{"data": "Assay results of several laboratories", "target": "Alpha-glucosidase MAL12 (MAL12, Saccharomyces cerevisiae S288c, UniProt P53341)", "note": "Lines come from different studies, so protocols differ.", "UniProt P53341, sequence (whole entry, looked up)": "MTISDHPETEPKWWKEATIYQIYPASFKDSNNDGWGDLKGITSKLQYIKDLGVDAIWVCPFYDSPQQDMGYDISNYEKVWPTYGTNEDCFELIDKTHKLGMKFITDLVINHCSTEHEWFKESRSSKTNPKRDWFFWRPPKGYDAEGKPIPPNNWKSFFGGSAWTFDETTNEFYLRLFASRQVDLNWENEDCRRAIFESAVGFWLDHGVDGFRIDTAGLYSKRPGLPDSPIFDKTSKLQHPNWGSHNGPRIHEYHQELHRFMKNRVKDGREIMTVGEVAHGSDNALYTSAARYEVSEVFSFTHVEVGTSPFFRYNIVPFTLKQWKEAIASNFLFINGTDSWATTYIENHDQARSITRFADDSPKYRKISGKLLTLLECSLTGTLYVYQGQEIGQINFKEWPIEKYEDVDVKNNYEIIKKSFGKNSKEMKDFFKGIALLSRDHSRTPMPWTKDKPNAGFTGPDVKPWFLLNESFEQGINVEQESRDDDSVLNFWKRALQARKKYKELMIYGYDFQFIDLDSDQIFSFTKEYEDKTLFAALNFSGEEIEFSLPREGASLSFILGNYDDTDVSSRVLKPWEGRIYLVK"}
{"Structure (SMILES)": "O=C(/C=C/c1ccc(O)c2oc(-c3ccc(O)c(O)c3)cc12)O[C@H](Cc1ccc(O)c(O)c1)C(=O)O", "assay": "inhibitor", "setting": "together with: 4-nitrophenyl α-glucopyranoside", "measurement": "Ki uncompetitive", "value": "8.8 µM"}
{"Structure (SMILES)": "COc1c(-c2cccc(O)c2)oc2c(OC)c(O)cc(O)c2c1=O", "assay": "enzyme activity, inhibitor, absorbance", "setting": "5 µM", "measurement": "inhibition", "value": "47%"}
{"Structure (SMILES)": "O=C1C(=O)N(CCOc2ccc(Br)cc2)c2ccccc21", "assay": "enzyme activity, inhibitor", "setting": "500 µM, pH 6.8", "measurement": "inhibition", "value": "88.8%"}
{"Structure (SMILES)": "C=C1C(=O)O[C@@H]2[C@H]3C(CO)=CC(=O)C3=C(C)C[C@H](O)[C@@H]12", "assay": "enzyme activity, inhibitor", "setting": "26.09 µM", "measurement": "Vmax", "value": "0.016 mM/min"}
{"Structure (SMILES)": "COc1cc(-c2oc3cc(O)cc(O)c3c(=O)c2OC)ccc1O", "assay": "enzyme activity, inhibitor", "setting": "250 µM", "measurement": "inhibition", "value": "> 99%"}
{"Structure (SMILES)": "Cc1cccc(/C=C/C(=O)c2cnn(-c3ccccc3)c2C)c1", "assay": "enzyme activity, inhibitor", "setting": "400 µM", "measurement": "inhibition", "value": "47.5%"}
{"Structure (SMILES)": "O=C1C(=O)N(CCOc2ccccc2)c2ccc(Cl)cc21", "assay": "enzyme activity, inhibitor", "setting": "500 µM, pH 6.8", "measurement": "inhibition", "value": "92.4%"}
{"Structure (SMILES)": "O=C1OCC(Cc2ccccc2)=C1c1ccccc1", "assay": "enzyme activity", "setting": "together with: p-nitrophenyl glucoside", "measurement": "Vmax", "value": "1.72 mM/min"}
{"Structure (SMILES)": "O=C1C(=O)N(CCOc2ccc(Cl)cc2)c2ccc(Cl)cc21", "assay": "enzyme activity, inhibitor", "setting": "500 µM, pH 6.8", "measurement": "inhibition", "value": "78.2%"}
{"Structure (SMILES)": "CN(C)c1ccc(C(=NN=Cc2ccc(O)c(O)c2O)c2ccc(N(C)C)cc2)cc1", "assay": "enzyme activity, inhibitor", "setting": "concentration not given, pH 6.8, 37 °C, together with: p-nitrophenyl alpha-D-glucopyranoside", "measurement": "activity", "value": "inactive"}
{"note": "A few entries again:"}
{"Structure (SMILES)": "O=C(/C=C/c1ccc(O)c2oc(-c3ccc(O)c(O)c3)cc12)O[C@H](Cc1ccc(O)c(O)c1)C(=O)O", "assay": "inhibitor", "setting": "together with: 4-nitrophenyl α-glucopyranoside", "measurement": "Ki uncompetitive", "value": "8.8 µM"}
{"Structure (SMILES)": "O=C1C(=O)N(CCOc2ccc(Cl)cc2)c2ccc(Cl)cc21", "assay": "enzyme activity, inhibitor", "setting": "500 µM, pH 6.8", "measurement": "inhibition", "value": "78.2%"}
